Measurements of several laboratories.
Compare with care: the assays were run in different laboratories. Several values in a cell are separate wells, animals, samples, runs or records. ± marks the error that the study gave. ≈ marks a conversion by molar mass, not a printed value.
Chain of UniProt Q9Y243 (whole entry, looked up): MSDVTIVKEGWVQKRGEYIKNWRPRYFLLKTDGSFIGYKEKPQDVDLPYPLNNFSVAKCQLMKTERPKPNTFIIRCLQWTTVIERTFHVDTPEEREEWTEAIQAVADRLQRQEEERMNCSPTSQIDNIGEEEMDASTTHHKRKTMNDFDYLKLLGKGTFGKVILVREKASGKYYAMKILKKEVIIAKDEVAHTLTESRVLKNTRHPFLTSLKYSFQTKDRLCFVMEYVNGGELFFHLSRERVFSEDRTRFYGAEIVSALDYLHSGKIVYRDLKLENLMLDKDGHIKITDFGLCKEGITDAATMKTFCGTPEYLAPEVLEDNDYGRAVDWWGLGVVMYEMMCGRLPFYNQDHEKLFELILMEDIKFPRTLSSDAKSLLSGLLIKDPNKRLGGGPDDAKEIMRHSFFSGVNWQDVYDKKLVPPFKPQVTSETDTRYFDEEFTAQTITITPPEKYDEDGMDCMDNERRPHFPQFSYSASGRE
Chain of UniProt Q8WU58 (whole entry, looked up): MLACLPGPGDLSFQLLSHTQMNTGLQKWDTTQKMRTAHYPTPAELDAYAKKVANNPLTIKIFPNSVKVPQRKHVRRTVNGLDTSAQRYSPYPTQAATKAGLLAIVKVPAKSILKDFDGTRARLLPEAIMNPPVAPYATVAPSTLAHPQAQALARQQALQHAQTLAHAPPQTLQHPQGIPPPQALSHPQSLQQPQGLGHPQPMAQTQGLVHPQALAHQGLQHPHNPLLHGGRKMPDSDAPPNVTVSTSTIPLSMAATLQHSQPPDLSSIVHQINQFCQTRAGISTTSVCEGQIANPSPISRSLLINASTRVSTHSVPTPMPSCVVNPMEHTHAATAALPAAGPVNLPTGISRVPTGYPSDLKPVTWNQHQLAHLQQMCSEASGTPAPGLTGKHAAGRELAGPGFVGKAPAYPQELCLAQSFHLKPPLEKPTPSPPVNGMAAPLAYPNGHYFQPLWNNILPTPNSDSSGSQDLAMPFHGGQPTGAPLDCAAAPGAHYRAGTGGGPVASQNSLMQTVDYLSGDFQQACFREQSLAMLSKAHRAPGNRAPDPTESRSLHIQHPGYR

With `COc1cc(Nc2ncc(F)c(Nc3ccc4c(n3)NC(=O)C(C)(C)O4)n2)cc(OC)c1OC` the solubility was 74.3 µM (≈ 35 µg/mL) (kinase assay buffer; 3 h, 0.3% DMSO).
The Proteinuria incidence of `COc1cc2c(Oc3ccc4[nH]c(C)cc4c3F)ccnc2cc1OCC1(N)CC1` is reported as 25% (paediatric refractory sarcoma patients; 10 mg).
For `C[C@]1(CO)Cc2ncn(-c3ccc(C#N)c(Cl)c3)c2C(=O)O1`, the tmax was 30 min (human, plasma; 0.7 mg single dose, median).
For `C[C@H]1CN(c2n[nH]c3nc(N[C@H]4CC[C@H](NS(=O)(=O)CCC(F)(F)F)CC4)ncc23)CCO1`, the remaining binding was 71% (Protein FAM222B (Homo sapiens, UniProt Q8WU58); competitor, Kinobeads competition; HEK293, K562, placenta extract; 0.16 µM; relative to: vehicle).
`CC[C@H](C)[C@@H]1NC(=O)[C@@H]2CCCN2C(=O)[C@H](CC(C)C)NC(=O)[C@H](CC(C)C)NC(=O)CNC(=O)[C@@H](NC(=O)[C@@H](NC(=O)[C@H](CC(=O)O)NC(=O)CNC(=O)[C@@H](NC(=O)[C@H](C)NC(=O)CNC(=O)[C@H](CCCCN)NC(=O)[C@H](CC(C)C)NC(=O)[C@H](CC(C)C)NC(=O)[C@H](CCCCN)NC(=O)CNC(=O)[C@@H](NC(=O)[C@@H](N)CC(C)C)C(C)C)C(C)C)C(C)C)CSSC[C@@H](C(=O)O)NC1=O`: “log2 fold change” -2.83 (RNA-seq, item: Ltf mRNA; mouse traumatic brain injury, frontal cortex and hippocampus; dose not given; relative to: TBI plus compound vs TBI).
The TGI of `COc1c(CCC[P+](c2ccccc2)(c2ccccc2)c2ccccc2)cc2c(c1OC)OCO2.[I-]` is reported as -4.98 log M (SN12C; SRB).
`CC[C@H](C)[C@H](NC(=O)[C@H](Cc1ccccc1)NC(=O)[C@H](CCC(=O)O)NC(=O)[C@H](CCCNC(=N)N)NC(=O)[C@H](C)NC(=O)[C@H](C)NC(=O)[C@H](CCC(N)=O)NC(=O)[C@H](CCC(=O)O)NC(=O)[C@H](CCC(=O)O)NC(=O)[C@H](CC(C)C)NC(=O)[C@H](Cc1ccc(O)cc1)NC(=O)[C@H](CO)NC(=O)[C@H](CO)NC(=O)[C@@H](NC(=O)[C@H](CC(=O)O)NC(=O)[C@H](CO)NC(=O)[C@@H](NC(=O)[C@H](Cc1ccccc1)NC(=O)[C@@H](NC(=O)CNC(=O)[C@H](CCC(=O)O)NC(=O)[C@H](C)NC(=O)CCc1c[nH]cn1)[C@@H](C)O)[C@@H](C)O)C(C)C)C(=O)N[C@@H](C)C(=O)N[C@@H](Cc1c[nH]c2ccccc12)C(=O)N[C@@H](CC(C)C)C(=O)N[C@H](C(=O)N[C@@H](CCCNC(=N)N)C(=O)NCC(=O)N[C@@H](CCCNC(=N)N)C(=O)N[C@@H](CCCCNC(=O)COCCOCCNC(=O)COCCOCCNC(=O)CC[C@H](NC(=O)CCCCCCCCCCCCCCCCC(=O)O)C(=O)O)C(=O)NCC(=O)NCC(=O)N[C@@H](CO)C(=O)N[C@@H](CCCCNc1c(NCCCCCN(O)C(=O)CCC(=O)NCCCCCN(O)C(=O)CCC(=O)NCCCCCN(O)C(C)=O)c(=O)c1=O)C(=O)O)C(C)C` [zirconium-89 labelled] has a tissue uptake of 0.01 %ID/g (ex vivo gamma counting; rat, colon content; subcutaneous, 3 nmol/kg, 4 h, together with: [89Zr]-labelled peptide).
`CN1CC[C@@H](c2c(O)cc(O)c3c(=O)cc(-c4ccc(C(F)(F)F)cc4Cl)oc23)[C@@H]1CO`: “patients with adverse event” 7.5% (item: Thrombocytopenia; relapsed or refractory haematological malignancies; oral, dose not given, grade 3 to 4, all arms).
`N=C(N)NCCC[C@@H](NC(=O)[C@@H](N)Cc1ccccc1)C(=O)N[C@@H](Cc1ccccc1)C(=O)N[C@@H](CCCCN)C(N)=O` — result for “median fraction excreted in urine”: 5.71% (LC-MS; human; 25 mg, 11.83 h).
`COc1ccc(CCC2CCCC(CCc3ccc(OC)cc3)N2C[C@@H](O)CO)cc1.Cl` (stereo in doubt) gave a Vmax change of -1.3 ± 0.9% (rabbit Purkinje fibres; 0.03 µM, cycle length 1 s; relative to: baseline).
`O=C(Nc1ccccc1)C1CCN(C(=O)Oc2cccnc2)CC1`: “change in Calm-excited score” -19 (Bond-Lader VAS; healthy women; 100 mg; relative to: pre-dose baseline, direction not given).
`O=C(O)C(O)(c1cccs1)c1cccs1` — result for “dose-normalised free Cmax”: 0.0132 (ng/mL)/mg (item: metabolite; human, plasma; oral, 50 mg once daily, 5 days, median).
Under “revertant colonies per plate”, `CNC(=O)c1c(N(C)N=O)ncn1C` is recorded as 94 ± 9 (Escherichia coli; plate incorporation; WP2uvrA pKM101, water; 50 µg/plate, without S9).
For `Cc1ccc(F)c2cc(C(=O)N[C@@H]3CCC[C@H](N4CC[C@H](N(C)S(C)(=O)=O)C4)C3)[nH]c12`, the plasma concentration was 1940 ng/mL (CD1 mouse, plasma; oral, 100 mg/kg, 0.25 h).
`COc1cccc(Oc2ccccc2NC(=O)CNC(=O)c2cccc3ccccc23)c1` gave an unconjugated bilirubin of 0.2 mg/dL and 0.1 mg/dL (esterase-deficient SCID mice, male; oral, 15 mg/kg/day, 14 days, toxicity study).
With `COc1ccc(N2C(=O)N(c3c(C)cccc3Cl)Cc3cnc(Nc4ccc(C5CCN(C)CC5)cc4OC)nc32)nc1` the inhibition was 3% (AKT3 (Homo sapiens, UniProt Q9Y243); kinase activity; 0.5 µM).
`CC(=O)c1c([O-])cc(C)oc1=O.[Na+]` has a clearance of 0.983 ± 0.0833 mL/min/kg (Wistar rat, male, serum; oral, 200 mg/kg, no CYP inhibitor).
Under “dose-reducing adverse events”, `CO[C@H]1C[C@@H]2CC[C@@H](C)[C@@](O)(O2)C(=O)C(=O)N2CCCC[C@H]2C(=O)O[C@H]([C@H](C)C[C@@H]2CC[C@@H](OC(=O)NCCOCCOCCOCCOCCOCCOCCOCCOCCC(=O)N3CCc4cc(Cn5nc(-c6ccc7oc(N)nc7c6)c6c(N)ncnc65)ccc4C3)[C@H](OC)C2)C[C@@H](O)[C@H](C)/C=C(\C)[C@@H](O)[C@@H](OC)C(=O)[C@H](C)C[C@H](C)/C=C/C=C/C=C/1C` is recorded as 0% (phase 1 dose escalation, item: gastric haemorrhage; advanced solid tumour patients; intravenous, 10 mg weekly, grade ≥3).
`CCc1ccc(CC/C=C/c2ccc3c(c2)C(=O)CC3)cc1` gave an HDW of 23.6 g/L (Sprague-Dawley rat, female; oral, 30 mg/kg/day, 14 days).

Excerpt of the above:
`O=C(Nc1ccccc1)C1CCN(C(=O)Oc2cccnc2)CC1`: “change in Calm-excited score” -19 (Bond-Lader VAS; healthy women; 100 mg; relative to: pre-dose baseline, direction not given).
